Measurements of several laboratories.
± marks the error that the study gave.

SMILES = C/C(=N\C(=S)/N=C(\C)c1c(O)c2ccccc2oc1=O)c1c(O)c2ccccc2oc1=O; target or system = Penicillium verrucosum; test = broth microdilution; setting = 48 h, 35 °C; endpoint = MIC; value = 1.95 ± 0.07 µg/mL
SMILES = N=C(N)c1ccc(OCc2cc(COc3ccc(C(=N)N)cc3)cc(-c3ccccc3)c2)cc1; target or system = Escherichia coli; system = 552100; setting = in combination, checkerboard, together with: rifampicin; endpoint = MIC; value = 12.5 µg/mL
SMILES = CN[C@H](CC(C)C)C(=O)N[C@H]1C(=O)N[C@@H](CC(N)=O)C(=O)N[C@H]2C(=O)N[C@H]3C(=O)N[C@H](C(=O)N[C@H](C(=O)O)c4cc(O)cc(O)c4-c4cc3ccc4O)[C@H](O)c3ccc(c(Cl)c3)Oc3cc2cc(c3O[C@@H]2O[C@H](CO)[C@@H](O)[C@H](O)[C@H]2O[C@H]2C[C@](C)(N)[C@H](O)[C@H](C)O2)Oc2ccc(cc2Cl)[C@H]1O; target or system = Staphylococcus epidermidis; system = MRSE-37, methicillin-resistant; endpoint = MIC; value = 1 µg/mL
SMILES = CNC(C)C1CCC(N)C(OC2C(N)CC(N)C(OC3OCC(C)(O)C(NC)C3O)C2O)O1 (stereo not drawn); target or system = Pseudomonas aeruginosa; test = broth microdilution; system = clinical isolate RKI-No 483/15-1; endpoint = MIC; value = 8 µg/mL
SMILES = C=CC(=O)ON=C1C=CC(=C(C#N)c2ccccc2)C=C1; target or system = Pichia norvegensis; test = broth dilution; system = ATCC 96139; setting = 48 h, 37 °C; endpoint = MIC; value = 32 µg/mL
SMILES = CC(C)(O/N=C(\C(=O)N[C@@H]1C(=O)N2C(C(=O)[O-])=C(C[n+]3ccccc3)CS[C@H]12)c1csc(N)n1)C(=O)O; target or system = Helicobacter pylori; test = broth microdilution; system = SS1; setting = 48 h, microaerobic; endpoint = MIC; value = > 128 µg/mL
SMILES = Cn1cc(-c2ccc(-c3cncc(Cl)c3N3CCC4(CCNC4=O)CC3)cc2)cn1; target or system = COLO 205; test = microarray, refers to: CDKN2C; setting = concentration not given, 2 h, gene set p18; how to read = reference: untreated cells; endpoint = fold change in expression; value = -2.29
SMILES = N#CC(=C1C=CC(=NOC(=O)OCc2ccccc2)C=C1)c1ccccc1; target or system = Pichia norvegensis; test = broth dilution; system = ATCC 96139; setting = 48 h, 37 °C; endpoint = MIC; value = 128 µg/mL
SMILES = CC1(C)S[C@@H]2[C@H](NC(=O)[C@H](N)c3ccccc3)C(=O)N2[C@H]1C(=O)O; target or system = Pseudomonas aeruginosa; system = clinical isolate RKI-No_254/15; endpoint = MIC; value = > 16 µg/mL
SMILES = CCCCCCCCCC(=O)N[C@@H](Cc1c[nH]c2ccccc12)C(=O)N[C@H](CC(N)=O)C(=O)N[C@@H](CC(=O)O)C(=O)N[C@@H]1C(=O)NCC(=O)N[C@@H](CCCN)C(=O)N[C@@H](CC(=O)O)C(=O)N[C@H](C)C(=O)N[C@@H](CC(=O)O)C(=O)NCC(=O)N[C@H](CO)C(=O)N[C@@H]([C@H](C)CC(=O)O)C(=O)N[C@@H](CC(=O)c2ccccc2N)C(=O)O[C@@H]1C; target or system = Staphylococcus aureus; system = SH1000; setting = together with: cardiolipin, molar ratio 0.5; endpoint = MIC; value = 1 µg/mL
SMILES = CC(=O)NC[C@H]1CN(c2ccc(N3CCOCC3)c(F)c2)C(=O)O1; target or system = Phocaeicola dorei; system = HM-717; endpoint = MIC; value = < 2.96 µM
SMILES = N=C(N)c1ccc(OCCC(CCOc2ccc(C(=N)N)cc2)c2ccccc2)cc1 (stereo not drawn); target or system = Escherichia coli; system = mcr-1 polymyxin-resistant; setting = 20 h, compound alone; endpoint = MIC; value = > 200 µg/mL
SMILES = CCON=C1C=CC(=C(C#N)c2ccccc2)C=C1; target or system = Pichia norvegensis; test = broth dilution; system = ATCC 96139; setting = 48 h, 37 °C; endpoint = MIC; value = 256 µg/mL
SMILES = CC1(C)S[C@@H]2[C@H](NC(=O)[C@H](N)c3ccccc3)C(=O)N2[C@H]1C(=O)O; target or system = Escherichia coli; test = broth microdilution; system = BW25113 wild type; setting = 18 h; endpoint = MIC; value = 3.12 µg/mL
SMILES = O=c1c(O)c(-c2ccc(O)cc2)oc2cc(O[C@@H]3O[C@H](CO)[C@@H](O)[C@H](O)[C@H]3O)cc(O)c12; target or system = Streptococcus sobrinus; system = ATCC 33478; endpoint = MIC; value = 100 µg/mL
SMILES = Cc1ccc(CCC(=O)Nc2nnc(S(N)(=O)=O)s2)cc1; target or system = Phocaeicola dorei; system = HM-719; endpoint = MIC; value = > 784 µM
SMILES = N=C(N)c1ccc(OCc2ccc(-c3ccccc3)cc2COc2ccc(C(=N)N)cc2)cc1; target or system = Escherichia coli; system = BW25113; setting = compound alone, together with: erythromycin checkerboard; endpoint = MIC; value = 200 µg/mL
SMILES = CN[C@H](CC(C)C)C(=O)N[C@H]1C(=O)N[C@@H](CC(N)=O)C(=O)N[C@H]2C(=O)N[C@H]3C(=O)N[C@H](C(=O)N[C@H](C(=O)O)c4cc(O)cc(O)c4-c4cc3ccc4O)[C@H](O)c3ccc(c(Cl)c3)Oc3cc2cc(c3O[C@@H]2O[C@H](CO)[C@@H](O)[C@H](O)[C@H]2O[C@H]2C[C@](C)(N)[C@H](O)[C@H](C)O2)Oc2ccc(cc2Cl)[C@H]1O; target or system = Staphylococcus aureus; system = CVCC546; setting = alone; endpoint = MIC; value = 1 µg/mL

Repeated from above:
SMILES = N=C(N)c1ccc(OCc2ccc(-c3ccccc3)cc2COc2ccc(C(=N)N)cc2)cc1; target or system = Escherichia coli; system = BW25113; setting = compound alone, together with: erythromycin checkerboard; endpoint = MIC; value = 200 µg/mL
